Measurements gathered from unrelated publications.
Numbers after ± are the reported error.

COc1cc([C@@H]2c3cc4c(cc3C=C(C=O)[C@H]2C(=O)OCCCCCCBr)OCO4)cc(OC)c1OC
CC50 (HepG2; Alamar Blue; 48 h): 68.9 ± 6 µM

Nc1ncc(-c2ccc3ncnc(N4CCc5cc(F)c(Cl)cc54)c3c2)cn1
Cmax (CD1 mouse, brain; intravenous, 5 mg/kg): 5140 ng/mL

CCCSc1nc(N[C@@H]2C[C@H]2c2ccc(F)c(F)c2)c2nnn([C@@H]3C[C@H](O)[C@@H](O)[C@H]3O)c2n1
AUC (rat, male, plasma; oral, 20 mg/kg/day ticagrelor, day 1): 6.9 µmol·h/L

Cc1cc(SCc2sc(-c3ccc4[nH]ncc4c3)nc2C)ccc1OCC(=O)O
CC50 (HEK293T; 18 h): not toxic

CCCCNCC1=Cc2cc3c(cc2[C@@H](c2cc(OC)c(OC)c(OC)c2)[C@@H]1C(=O)OC)OCO3
CC50 (HepG2; Alamar Blue; 48 h): 6.6 ± 0.4 µM

Cc1cc(SCc2sc(-c3ccc4nonc4c3)nc2C)ccc1OCC(=O)O
CC50 (HEK293T; 18 h): > 100 µM

COc1cc([C@@H]2c3cc4c(cc3[C@H](C=C(C)C)[C@H]3COC(=O)[C@H]23)OCO4)cc(OC)c1OC
CC50 (mouse splenocytes uninfected; Alamar Blue; 48 h): 6.4 ± 0.8 µM

COc1ccc(CC(=O)OCc2ccc(-n3cccn3)cc2)cc1F
half-life (mouse plasma): > 150 min

COC(=O)[C@@H]1C(c2nc3ccccc3s2)=Cc2cc3c(cc2[C@H]1c1cc(OC)c(OC)c(OC)c1)OCO3
CC50 (HepG2; Alamar Blue; 48 h): 47.5 ± 0.3 µM

Cc1cc(SCc2sc(-c3ccc(OCC(F)(F)F)c(F)c3)nc2C)ccc1OCC(=O)O
CC50 (HEK293T; 18 h): > 50 µM

Cc1n[nH]c(C)c1CCOC(=O)c1cccc2c1oc(=O)n2C
logD (pH 7.4): 1.87

COC(=O)[C@@H]1C(C=Nc2cncnc2N)=Cc2cc3c(cc2[C@H]1c1cc(OC)c(OC)c(OC)c1)OCO3
CC50 (mouse splenocytes uninfected; Alamar Blue; 48 h): > 100 µM

CNc1ccc(-c2nc(C)c(CSc3ccc(OCC(=O)O)c(C)c3)s2)cc1
CC50 (HEK293T; 18 h): not toxic

Cc1cc(NC(=O)c2cccc(NC(=O)C3=CC(C)(C)CCC3=O)c2)ccc1Nc1nccc(-c2cccnc2)n1
compound remaining (rat plasma; 1 µM, 20 min): 102%

Cc1cc(SCc2sc(-c3ccccc3C(F)(F)F)nc2C)ccc1OCC(=O)O
CC50 (HEK293T; 18 h): > 100 µM

COC(=O)[C@@H]1C(c2nc3cc(C(F)(F)F)ccc3s2)=Cc2cc3c(cc2[C@H]1c1cc(OC)c(OC)c(OC)c1)OCO3
CC50 (HepG2; Alamar Blue; 48 h): > 100 µM

Cc1cc(SCc2sc(-c3cccc(C#N)c3)nc2C)ccc1OCC(=O)O
CC50 (HEK293T; 18 h): > 80 µM

CC(C)n1nnc(-c2cc(O)cc(Nc3ncnn4ccc(CN5CCC(N)CC5)c34)c2)n1
brain to plasma ratio (mouse; subcutaneous, 10 mg/kg, 90 min): 0.03
